Experimental data pooled from the literature.
Protocols differ between the studies behind these lines.

Compound | organism | test | system | conditions | how to read | measurement | result
CN[C@@H]1[C@H](O)[C@H](NC)[C@H]2O[C@]3(O)[C@H](O[C@@H]2[C@H]1O)O[C@H](C)C[C@@]3(O)CNCc1ccc(F)cc1 | Neisseria meningitidis | – | ATCC 13077 | 40 µg per disc | – | inhibition zone diameter | 19 to 20 mm
CC(=O)[O-].F[P-](F)(F)(F)(F)F.[Cu+2].c1ccc(CN2CCN3CCN(CC2)CCN(Cc2ccccc2)CC3)cc1 | Leishmania donovani | – | THP-1-derived macrophages, intracellular amastigotes | – | – | IC50 | > 20 µM
CC1(C)C(C=C(Cl)Cl)C1C(=O)OCc1c(F)c(F)c(F)c(F)c1F (stereo not shown) | Anopheles funestus | glazed tile contact bioassay | FANG susceptible | – | baseline: permethrin | potency relative to permethrin | ≤ 25 fold
COc1ccc(-c2ccc3oc(-c4ccc(OC)cc4)c(C#CC4(O)CCCCC4)c3c2)cc1 | hepatitis C virus | HCV replicon replication | Huh-7.5.1, genotype 1a transient replicon | 10 µM | baseline: DMSO | remaining activity | 137%
CN(C)c1ccc(/C=C/C(=O)C(C(=O)c2ccccc2)=C2SCCCCS2)cc1 | Mycolicibacterium smegmatis | microbial growth | – | 24 h | – | MIC50 | > 100 µM
CN1CC(=O)N=C1N.C[C@H](CCC(=O)O)[C@H]1CC[C@H]2[C@@H]3[C@H](O)C[C@@H]4C[C@H](O)CC[C@]4(C)[C@H]3CC[C@]12C | Shigella flexneri | – | ATCC 9199 | 1 mg per disc, 18 to 24 h, 37 °C | – | antibacterial activity | inactive
CCn1c(-c2ccc(-c3ccc(F)cc3)cc2)c(-c2ccc(-c3ccc(F)cc3)cc2)n(CC)c1=[Se+][Au-][P+](CC)(CC)CC.[Cl-] | Acinetobacter baumannii, carbapenem-resistant | measured: IL-6, TNF-alpha | BALB/c mouse, skin wound infection, wound tissue | dose not given, day 14 | baseline: untreated infected | proinflammatory gene expression | decreased
[Cl-].[Cl-].[Ni+2].c1ccc(CN2CCNCCN(Cc3ccccc3)CCNCC2)cc1 | Leishmania donovani | parasite growth, resazurin | – | 72 h, amastigote | – | IC90 | > 20 µM
C=CC1CN(C(=O)NCC=CCSCC=CCNC(=O)N2CC(C=C)OC2=S)C(=S)O1 (stereo not shown) | human alphaherpesvirus 1 | – | – | – | baseline: CC50 over EC50 | selectivity index | 5.2
Cc1cccc2c1NC(=O)C2=Cc1ccc(-c2cccc(C(=O)N3CCCN(C)CC3)c2)o1 (mixture of isomers) | Trichuris muris | adult worm motility | – | 24 h | – | IC50 | 17.2 µM
CC(=O)Oc1ccc(Cn2cc(F)c(=O)[nH]c2=O)cc1C1OC(c2ccccc2)=NN1C(C)=O (stereo not shown) | varicella-zoster virus | plaque formation, plaque reduction | HEL fibroblasts, TK+ strain OKA | – | – | EC50 | > 100 µM
CC(=O)[O-].CN(C)C=O.F[P-](F)(F)(F)(F)F.[Co+2].c1ccc(CN2CCN3CCCN(CC2)CCN(Cc2ccccc2)CC3)cc1 | Leishmania donovani | parasite growth | THP-1 macrophages | intracellular amastigotes | – | IC90 | > 10 µM
CC[C@H](C)[C@H](NC(=O)[C@H](CCCCN)NC(=O)[C@H](CCCCN)NC(=O)[C@H](CC(C)C)NC(=O)[C@H](CCCCN)NC(=O)[C@H](CCC(=O)O)NC(=O)[C@H](CCCCN)NC(=O)[C@@H](NC(=O)[C@H](CCCCN)NC(=O)[C@H](CC(N)=O)NC(=O)[C@H](CCCNC(=N)N)NC(=O)[C@H](Cc1ccccc1)NC(=O)[C@H](CCCCN)NC(=O)[C@H](CCCNC(=N)N)NC(=O)[C@H](CC(C)C)NC(=O)[C@H](CCCNC(=N)N)NC(=O)[C@H](CCCCN)NC(=O)[C@H](CCCNC(=N)N)NC(=O)[C@H](CC(C)C)NC(=O)CN)[C@@H](C)CC)C(=O)NCC(=O)N[C@@H](CCC(N)=O)C(=O)N[C@@H](CCCCN)C(=O)N[C@H](C(=O)N[C@@H](CCC(N)=O)C(=O)NCC(=O)N[C@@H](Cc1ccccc1)C(=O)N[C@H](C(=O)N1CCC[C@H]1C(=O)N[C@@H](CCCCN)C(=O)N[C@@H](CC(C)C)C(=O)N[C@@H](C)C(=O)N1CCC[C@H]1C(=O)N[C@@H](CCCNC(=N)N)C(=O)N[C@H](C(=O)N[C@@H](CC(=O)O)C(=O)N[C@@H](Cc1ccc(O)cc1)C(=O)O)[C@@H](C)O)C(C)C)[C@@H](C)CC | Stenotrophomonas maltophilia | inhibition zone | CGMCC 1.179 | LB agar, overnight | – | lethal concentration | 3.93 µM
